Experimental data from different studies.
Protocols differ between the studies behind these lines. Numbers after ± are the reported error.
MAP3K5: Mitogen-activated protein kinase kinase kinase 5 (MAP3K5, Homo sapiens, UniProt Q99683)
Chain of UniProt Q8IZL9 (whole entry, looked up): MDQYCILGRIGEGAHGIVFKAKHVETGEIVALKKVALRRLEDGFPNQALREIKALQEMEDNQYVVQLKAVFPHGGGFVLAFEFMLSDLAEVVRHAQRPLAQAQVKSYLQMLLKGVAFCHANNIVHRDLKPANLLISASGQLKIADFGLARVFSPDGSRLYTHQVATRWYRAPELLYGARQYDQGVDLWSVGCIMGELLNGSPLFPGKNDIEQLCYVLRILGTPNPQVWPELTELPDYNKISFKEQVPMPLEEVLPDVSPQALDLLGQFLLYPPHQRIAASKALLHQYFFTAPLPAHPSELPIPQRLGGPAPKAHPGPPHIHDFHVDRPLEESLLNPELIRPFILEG
Chain of UniProt Q9HC98 (whole entry, looked up): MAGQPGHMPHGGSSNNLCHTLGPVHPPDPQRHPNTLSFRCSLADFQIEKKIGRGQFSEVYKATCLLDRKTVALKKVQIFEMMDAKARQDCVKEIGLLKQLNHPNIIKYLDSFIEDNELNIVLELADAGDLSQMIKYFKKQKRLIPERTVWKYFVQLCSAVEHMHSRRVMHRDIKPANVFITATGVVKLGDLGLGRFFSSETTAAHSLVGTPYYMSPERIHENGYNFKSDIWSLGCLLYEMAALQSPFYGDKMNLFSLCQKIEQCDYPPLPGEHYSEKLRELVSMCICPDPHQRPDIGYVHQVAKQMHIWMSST

For `COc1ccccc1-c1n[nH]c2nc(NC3CCN(C(=O)Cc4ccc(F)cc4F)CC3)ncc12`, the relative abundance was 0.9 (bead binding, competition bead pull-down, item: LINJ.33.0950; Leishmania donovani extract; 10 µM; reference: vehicle).
With `Cc1ccccc1/C=C/C(=O)N[C@@H](CO)C(=O)N[C@H](C(=O)N[C@H](Cc1ccccc1)C(=O)N[C@@H]1C(=O)N2[C@@H](CC(=O)O)C(=O)Nc3ccccc3[C@@]2(O)[C@@H]1O)[C@@H](C)O` the IC50 was greater than 20 µM (SK-HEP1).
With `O[C@]12C=C(c3nccc4c3[nH]c3ccccc34)[C@@H]3CCN(CCCC/C=C\CC1)C[C@@]31C[C@@H]3/C=C\CCCCN3[C@H]12` the IC50 was 1.1 µg/mL (BT-549; cell growth or viability, neutral red; 48 h).
With `[CH3][Ti+2][O]C(=O)c1ccc([S][Au][PH](c2ccccc2)(c2ccccc2)[c-]2cccc2)cc1.[Fe+2].c1cc[cH-]c1.c1cc[cH-]c1.c1cc[cH-]c1` the IC50 was 5.11 µM (HEK-293T; cell growth or viability, XTT; 24 h).
With `CSc1ccc2c(c1)c(CCN)c(C)n2Cc1ccccc1Cl` the IC50 was 4.02 µM (HMC3; cell growth or viability, imaging).
For `CCC1(c2ccc(NC(=O)CCC(=O)OC3OC4OC5(C)CCC6C(C)CCC(C3C)C46OO5)cc2)CCC(=O)NC1=O` (mixture of isomers), the IC50 was greater than 50 µM (7702 normal human cells; cell growth, CCK-8; 48 h).
The IC50 of `CSc1ccc2c(c1)c(CCN)c(C)n2Cc1ccc(Cl)cc1` is reported as 9.64 µM (HMC3; nuclear intensity, high-content imaging; geometric mean).
`CC(=O)O[C@@H]1C[C@@H](C)O[C@H]2O[C@@H]3C[C@@H]4CC[C@@H]5[C@H](CC[C@]6(C)[C@@H](C7=CC(=O)OC7)CC[C@]56O)[C@@]4(C=O)C[C@H]3O[C@]21O` gave an IC50 of less than 0.01 µM (L6; cell growth or viability, resazurin; 72 h).
For `CS(C)(=O)=Nc1ccc(-c2ccc(-c3nc4cc(O[C@@H]5CO[C@H]6[C@@H]5OC[C@H]6O)[nH]c4cc3F)cc2)cc1`, the inhibition was 9% (MAP3K5; enzyme activity, inhibitor; 10 µM).
`Cc1sc2c(c1C)C(c1ccc(-c3cccc(NC(=O)c4cnn5cccnc45)c3)cc1)=N[C@@H](CC(N)=O)c1nnc(C)n1-2` gave an IC50 of 0.008 µM (NB-4; cell growth or viability, ATP luminescence; 72 h).
`CN(C)C(=O)[C@@H](NC(=O)c1cc(-c2ccnn2C)ccc1-c1ccc(C(F)(F)F)cc1)c1cccc(C(F)(F)F)c1` has an IC50 of 0.3 µM (NKL effector, Ba/F3-ULBP3 target; NKG2D-mediated cell killing, inhibitor).
`Cc1nc2cccc(OCC(C)(C)C(=O)NC(C)C)c2c(N)c1C(=O)[O-].[Na+]` — result for “revertant colonies per plate”: 12 ± 2 (Salmonella typhimurium; TA1537; 0.051 mg per plate, without S9, preincubation).
For `CC(C)[C@H]1NC(=O)C[C@H]2/C=C/CCSSC[C@@H](NC1=O)C(=O)N[C@H](Cc1cccc3ccccc13)C(=O)NCC(=O)O2`, the inhibition was 15.8% (NEK6 (Homo sapiens, UniProt Q9HC98); enzyme activity, inhibitor; 10 µM).
With `O=C1C=CC(=C(c2ccc(O)cc2)c2c(C#Cc3ccc(O)cc3)cccc2-c2ccc(O)cc2)C=C1` the IC50 was 13.2 µM (NCI-H460; cell growth or viability, MTT; 48 h).
For `CC(C)C12OC1C1OC13C1(C)CCC4=C(COC4=O)C1CC1OC13C2OC(=O)CCC(=O)OC1OC(CO)C(O)C(O)C1O` (stereo not shown), the IC50 was 5.64 µM (human Fibroblast; cell growth or viability, XTT; 47 h).
For `O=C1C=CC(=O)c2c(O)cccc21`, the IC50 was 12.4 µM (HuCC-A1; cell growth or viability, MTT).
The IC50 of `CCOc1ccccc1-n1c(CN2CCNCC2)nc2ccccc2c1=O` is reported as 0.15 µM (LS180; cell growth or viability; 72 h).
`c1cnc2c(c1)c1nccnc1c1cccnc12` has an IC50 of greater than 50 µM (BEL-7404; cell growth or viability, MTT; 48 h).
The IC50 of `O=C(c1cc(Cc2n[nH]c(=O)c3ccccc23)ccc1F)N1CC(CNC2CC2)C1` is reported as 0.0026 µM (MDA-MB-453).
With `O=C(C[Se]C(=O)c1cccs1)Nc1cccc(C(F)(F)F)c1` the IC50 was 29.3 µM (HaCaT; cell growth or viability, MTS; 48 h).
For `CC1CCC2C(C)C(OC(=O)CCC(=O)OC3C(C)OC(n4cc(F)c(=O)[nH]c4=O)C3OC(=O)CCC(=O)OC3OC4OC5(C)CCC6C(C)CCC(C3C)C46OO5)OC3OC4(C)CCC1C32OO4` (stereo not shown), the IC50 was 12.8 µM (IOSE-144; cell growth or viability, CCK-8).
For `O=C1NC2(CC2)COc2ncc(F)cc2[C@H]2COCCN2c2ccn3ncc1c3n2`, the serum urea was 4.19 ± 0.49 mmol/L (Sprague-Dawley rat, male, serum; oral, 2.5 mg/kg/day, end of recovery, 4-week subacute toxicity).
`CC(C)C12OC1C1OC13C1(C)CCC4=C(COC4=O)C1CC1OC13C2OC(=O)CCCOC1OC(CO)C(O)C(O)C1O` (stereo not shown) has an IC50 of 6.48 µM (SW1990; cell growth or viability, XTT; 47 h).
The IC50 of `CC(=O)[O][Pt]([NH2])([NH2])([Cl])([Cl])[O]C(=O)C(Cl)Cl` is reported as 1.27 µM (LoVo; cell growth or viability, MTT; 72 h).
For `Cc1ccccc1/C=C/C(=O)N[C@H]1COC(=O)[C@H](CC(=O)O)NC(=O)[C@H]([C@@H](O)C(=O)c2ccccc2N)NC(=O)[C@@H](Cc2ccccc2)NC(=O)[C@@H](NC(=O)[C@@H](Cc2ccccc2)NC(=O)CN)[C@@H](C)OC1=O`, the IC50 was 10.3 µM (SNU-638).
With `Cc1sc2c(c1C)C(c1ccc(NC(=O)c3cc([N+](=O)[O-])ccc3F)cc1)=N[C@@H](CC(=O)OC(C)(C)C)c1nnc(C)n1-2` the IC50 was 4.4e-05 µM (BXPC-3; cell growth or viability, ATP luminescence; 72 h).
For `CC[C@H](C)[C@H](NC(=O)[C@H](CO)NC(=O)[C@H](Cc1ccc(O)cc1)NC(=O)[C@H](Cc1ccc(O)cc1)NC(=O)[C@H](CC(N)=O)NC(=O)CNC(=O)[C@H](CO)NC(=O)[C@H](Cc1ccc(O)cc1)NC(=O)[C@H](CO)NC(=O)[C@H](CO)NC(=O)[C@H](CC(N)=O)NC(=O)COCCOCCNC(=O)CN1CCN(CC(=O)O)CCN(CC(=O)O)CCN(CC(=O)O)CC1)C(=O)N[C@@H](CC(C)C)C(N)=O` [copper-64 labelled], the tumour uptake was 5.58 %ID/mL (dynamic PET; mouse, tamoxifen-induced PDAC, blood; intravenous, 0.1 µg/mouse, 12.5 min).
With `CC(C)=CCc1c(O)cc2c(c1O)C(=O)CC(c1ccc(O)cc1)O2` (stereo not shown) the IC50 was 27.9 µM (HeLa; cell growth or viability, MTT; 48 h).
`O=C1NC(=O)c2c1c1cc(F)c[n+]3c1c1c2c2cc(O)ccc2[n]1[Ru-4]312([N]=C=S)[S+]3CC[S+]1CC[S+]2CC3` (stereo not shown) has a remaining activity of 114% (MAP3K5; enzyme activity; 100 nM, human enzyme, together with: 10 µM ATP; reference: untreated).
`CC[C@H](C)[C@H](NC(=O)[C@H](CCCCN)NC(=O)CNC(=O)[C@H](CC(C)C)NC(=O)[C@H](Cc1ccccc1)NC(=O)[C@H](CCCCN)NC(=O)[C@H](CO)NC(=O)[C@H](Cc1ccccc1)NC(=O)[C@H](Cc1c[nH]c2ccccc12)NC(=O)[C@H](CCC(N)=O)NC(=O)[C@@H](NC(=O)[C@H](Cc1ccccc1)NC(=O)CCCCCNC(=O)CN1CCN(CC(=O)O)CCN(CC(=O)O)CCN(CC(=O)O)CC1)C(C)C)C(=O)N[C@@H](CCC(=O)O)C(=O)N1CCC[C@H]1C(=O)N[C@@H](CC(=O)O)C(=O)N[C@H](C(=O)N[C@@H](CO)C(=O)N[C@@H](CCC(N)=O)C(=O)N[C@H](C(=O)N[C@@H](CCC(N)=O)C(=O)N[C@@H](CC(=O)O)C(=O)N1CCC[C@H]1C(=O)N[C@@H](CC(N)=O)C(=O)N[C@@H](CC(=O)O)C(=O)N[C@@H](CCC(N)=O)C(=O)N[C@@H](Cc1ccc(O)cc1)C(=O)N[C@@H](CCC(=O)O)C(=O)N1CCC[C@H]1C(=O)N[C@@H](Cc1ccccc1)C(=O)O)C(C)C)C(C)C` [copper-64 labelled] gave a tissue uptake of 1.86 ± 0.4 %ID/g (C57BL/6 male mouse, tumour-naive, bone; 0.5 h).
`CC(C)(C)C(=O)OCOP(=O)(OCOC(=O)C(C)(C)C)C1CCCN(O)C1=O` (stereo not shown) has a log LC50 of greater than -4 log M (SF-539).
For `CN(C)[C@H]1C[C@@]23CC[C@@]4(O2)C(=CC[C@]2(C)[C@@H](c5ccc6ccncc6c5)CC[C@H]24)C=C3[C@@H](O)[C@@H]1O`, the inhibition was 6.3% (CDK20 (Homo sapiens, UniProt Q8IZL9); ATP probe labelling, inhibitor, KiNativ profiling; 1 µM).
`COc1ccccc1-c1n[nH]c2nc(N[C@H]3CC[C@H](NS(=O)(=O)CC(C)C)CC3)ncc12` gave a relative abundance of 1 (bead binding, competition bead pull-down, item: LINJ.34.0870; Leishmania donovani extract; 10 µM; reference: vehicle).
With `C#Cc1ccc(N2CCOCC2)c(/C=N/NC(=O)CCl)c1` the IC50 was 4.3 µM (HT-29; cell growth or viability).
For `Cc1cc(C(=O)Nc2nc3cccc(C)c3n2[C@H]2CCCCN(C(=O)/C=C/CN(C)C)C2)ccn1`, the survival was 100% (Trypanosoma brucei; STIB795, mouse acute HAT model; oral, 2.5 mg/kg once daily for 4 days, day 0; reference: mice).
The IC50 of `Cc1cc(Oc2nc(N3CC[C@@H](c4ccncc4)C3)ncc2F)[nH]n1` is reported as 25.7 µM (LoVo; cell proliferation; colon cancer).
`Cc1cc(Nc2nc(C[C@@]3(C(=O)O)CCN(Cc4cccc(Cl)c4F)[C@H](C)C3)cc(C)c2F)[nH]n1` has an IC50 of 0.0616 µM (BT-549; cell growth or viability, ATP luminescence; 5 days).

A few entries again:
For `CC(C)[C@H]1NC(=O)C[C@H]2/C=C/CCSSC[C@@H](NC1=O)C(=O)N[C@H](Cc1cccc3ccccc13)C(=O)NCC(=O)O2`, the inhibition was 15.8% (NEK6 (Homo sapiens, UniProt Q9HC98); enzyme activity, inhibitor; 10 µM).
The IC50 of `CSc1ccc2c(c1)c(CCN)c(C)n2Cc1ccc(Cl)cc1` is reported as 9.64 µM (HMC3; nuclear intensity, high-content imaging; geometric mean).
With `O=C1C=CC(=C(c2ccc(O)cc2)c2c(C#Cc3ccc(O)cc3)cccc2-c2ccc(O)cc2)C=C1` the IC50 was 13.2 µM (NCI-H460; cell growth or viability, MTT; 48 h).
`CC(=O)O[C@@H]1C[C@@H](C)O[C@H]2O[C@@H]3C[C@@H]4CC[C@@H]5[C@H](CC[C@]6(C)[C@@H](C7=CC(=O)OC7)CC[C@]56O)[C@@]4(C=O)C[C@H]3O[C@]21O` gave an IC50 of less than 0.01 µM (L6; cell growth or viability, resazurin; 72 h).
